Published values pooled from the literature.
Lines come from different studies, so protocols differ. ± gives the spread as reported.
TACR1: Substance-P receptor (TACR1, Homo sapiens, UniProt P25103)
UniProt P25103, sequence (whole entry, looked up): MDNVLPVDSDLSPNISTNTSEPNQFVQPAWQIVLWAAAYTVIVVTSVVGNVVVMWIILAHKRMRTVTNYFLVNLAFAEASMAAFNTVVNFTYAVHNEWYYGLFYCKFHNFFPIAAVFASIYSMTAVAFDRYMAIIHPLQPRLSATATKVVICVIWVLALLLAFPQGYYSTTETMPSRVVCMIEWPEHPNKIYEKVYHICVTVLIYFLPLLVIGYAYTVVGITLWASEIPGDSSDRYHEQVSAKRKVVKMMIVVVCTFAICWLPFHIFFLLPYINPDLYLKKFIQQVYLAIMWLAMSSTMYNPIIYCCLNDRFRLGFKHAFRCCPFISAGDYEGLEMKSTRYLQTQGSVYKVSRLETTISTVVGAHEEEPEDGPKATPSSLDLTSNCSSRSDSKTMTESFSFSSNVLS

The inhibition of C[Si](C)(C)C[C@@H](CN)CC(=O)O is reported as 11% (TACR1; ligand displacement, radioligand; 75 µM).
COCC(=O)N1CCc2cc(-c3csc(NC(=O)c4cc(OC)cc(OC)c4)n3)ccc21 has an inhibition of 7% (TACR1; ligand displacement, radioligand; 10 µM).
The inhibition of COc1ccc(S(=O)(=O)N2CCc3ccccc3C2)cc1N1CCN(C(=O)c2ccc(F)cc2C(F)(F)F)CC1 is reported as -12.2% (TACR1; cell-free assay; 1 µM).
The inhibition of CNC(=O)C[C@H](Cc1ccc(C#N)cc1)NC(=O)c1cc(-c2ccc(CN[C@H](C)c3ccc(C)cc3)o2)ccc1Cl is reported as 32% (TACR1; agonist response, antagonist; human cells; 10 µM, NK1 antagonist).
The inhibition of Cc1[nH]nc2c1N=C(c1ccccc1Cl)c1cnc(N3CCOCC3)cc1N2 is reported as 0% (TACR1; cell-free assay; 10 µM).
CSCC[C@H](NC(=O)[C@H](CC(C)C)NC(=O)CNC(=O)[C@@H](NC(=O)[C@H](Cc1ccccc1)NC(=O)[C@H](CO)NC(=O)[C@H](CC(=O)O)NC(=O)[C@@H](NC(=O)[C@H](CCCCN)NC(=O)[C@@H](N)Cc1c[nH]cn1)[C@@H](C)O)C(C)C)C(N)=O gave an Emax of 85 ± 1% (Substance-P receptor, with miniGs/q (TACR1, Homo sapiens, UniProt P25103); miniGs/q recruitment, BRET; HEK293; 30 min; relative to: 10 µM substance P).
The inhibition of O=C1c2sc(-c3ccc(N4CCC(CO)CC4)nc3F)nc2CCN1c1cccnc1 is reported as 16% (TACR1; ligand displacement, radioligand; 1 µM).
CSCC[C@H](NC(=O)[C@H](CC(C)C)NC(=O)CNC(=O)[C@H](Cc1ccccc1)NC(=O)[C@H](Cc1cccc(C(F)(F)F)c1)NC(=O)[C@@H](N)CCC(N)=O)C(N)=O has a population of roughly 5% (TACR1; ligand binding, 19F-NMR; LMNG/CHS micelles; 80 µM, pH 7.5, 298 K, mtfF-labelled SP variants).

Repeated from above:
The inhibition of O=C1c2sc(-c3ccc(N4CCC(CO)CC4)nc3F)nc2CCN1c1cccnc1 is reported as 16% (TACR1; ligand displacement, radioligand; 1 µM).
